Measurements pooled from the literature.
Lines come from different studies, so protocols differ. ± marks the error that the study gave.

O=C(Nc1ccccc1)C1CCN(C(=O)Oc2cccnc2)CC1 — adverse event Palpitations (healthy women; oral, 60 mg, 7 days): 0%
C=CCNc1c(O)cc2c(O)c1C[C@@H](C)C[C@H](OC)[C@H](O)[C@@H](C)/C=C(\C)[C@H](OC(N)=O)[C@@H](OC)/C=C\C=C(/C)C(=O)N2 — patients with diarrhoea TEAE (unresectable or metastatic STS, GIST, other; intravenous, 90 mg/m^2): 33%
COc1ncnn2ccc(-c3cnc4nc(C)n(Cc5nnc([C@@H](C)F)o5)c4c3)c12 — incidence of grade 1 taste disorder (human patients; oral, dose not given): 7.1%
C[C@]1(CO)Cc2ncn(-c3ccc(C#N)c(Cl)c3)c2C(=O)O1 — subjects with drug-related dizziness (human, Chinese; 80 mg single dose): 33.3%
NC(=O)[C@H]1CCN(c2ncnc(N)c2F)C[C@@H]1N1CCC[C@@H](Nc2cc(Cl)cc(C(F)(F)F)c2)C1=O — grade ≥3 leukocytosis (B-cell malignancy patients; oral, 246 mg twice daily, dose): 0%
C[C@@H]1NC(=O)[C@H](CCCCNC(=O)CO/N=C/C(=O)NCCCC[C@@H]2NC(=O)[C@@H](Cc3ccccc3)NC(=O)[C@H](CC(=O)O)NC(=O)CNC(=O)[C@H](CCCNC(=N)N)NC2=O)NC(=O)CNC(=O)[C@@H]2CCCN2C(=O)[C@H](CCCCNC(=O)CO/N=C/C(=O)NCCCC[C@@H]2NC(=O)[C@@H](Cc3ccccc3)NC(=O)[C@H](CC(=O)O)NC(=O)CNC(=O)[C@H](CCCNC(=N)N)NC2=O)NC(=O)[C@H](CCCCNC(=O)CN2CCCNCCNCCCNCC2)NC(=O)[C@H](CCCCNC(=O)CO/N=C/C(=O)NCCCC[C@@H]2NC(=O)[C@@H](Cc3ccccc3)NC(=O)[C@H](CC(=O)O)NC(=O)CNC(=O)[C@H](CCCNC(=N)N)NC2=O)NC(=O)CNC(=O)[C@@H]2CCCN2C(=O)[C@H](CCCCNC(=O)CO/N=C/C(=O)NCCCC[C@@H]2NC(=O)[C@@H](Cc3ccccc3)NC(=O)[C@H](CC(=O)O)NC(=O)CNC(=O)[C@H](CCCNC(=N)N)NC2=O)NC1=O [copper-64 labelled] — tissue uptake (PET imaging; mouse, U-87 MG tumour xenograft, kidney; intravenous, 24 h): 5.14 ± 0.95 %ID/g
CCc1ccc(CC/C=C/c2ccc3c(c2)C(=O)CC3)cc1 — platelet distribution width (Sprague-Dawley rat, male, blood; oral, 120 mg/kg/day, 14 days): 50.1%
O=C(c1ccc(F)c(F)c1Nc1ccc(I)cc1F)N1CC(O)([C@@H]2CCCCN2)C1 — AE leading treatment withdrawal (patients aged sample A to sample B years; oral, dose not given): 29%
CN1CC[C@@H](c2c(O)cc(O)c3c(=O)cc(-c4ccc(C(F)(F)F)cc4Cl)oc23)[C@@H]1CO — patients with adverse event (refers to: Pyrexia; AML; oral, 100 mg, intermittent dosing): 66.7%
COc1cc2c(Oc3ccc4[nH]c(C)cc4c3F)ccnc2cc1OCC1(N)CC1 — grade 1 or 2 Neutropenia (paediatric recurrent refractory sarcoma; 12 mg): 27.3%
CC(C)(c1ccccc1)c1cc(-n2nc3ccccc3n2)c(O)c(C(C)(C)c2ccccc2)c1 — mean daily dermal uptake (exposure assessment; human, age 21-60 years; cream): 0.9 ng/kg body weight/day
N[C@@H]1c2ccccc2OC12CCN(c1cnc3c(N4CCCc5ncccc54)n[nH]c3n1)CC2 — serious TEAE grade ≥3 (advanced solid tumour patients; oral, 50 mg once daily): 33.3%
Cc1cc(C)c(CNC(=O)c2cc(Cl)c3c(c2C)O[C@@](C)([C@H]2CC[C@H](N(C)C)CC2)O3)c(=O)[nH]1 — incidence of neutrophil count decreased (relapsed/refractory NHL patients; dose not given, trial, safety set, treatment-related TEAE grade 5): 0%
Cn1c(-c2ccc(C(N)=O)cc2F)nnc1C(C)(C)Oc1c(F)cc(Cl)cc1F — nervous system disorder TEAE (human; oral, 60 mg, single ascending dose): 0%
COc1ncccc1-c1cnn2ccc(N3CCN(C(=O)OC(C)C)CC3)nc12 — drug concentration (mouse nerve ligation model, plasma; oral, 3 mg/kg, 30 min after last dose, repeat dosing day 1): 740 nM
CO[C@H]1C[C@@H]2CC[C@@H](C)[C@@](O)(O2)C(=O)C(=O)N2CCCC[C@H]2C(=O)O[C@H]([C@H](C)C[C@@H]2CC[C@@H](OC(=O)NCCOCCOCCOCCOCCOCCOCCOCCOCCC(=O)N3CCc4cc(Cn5nc(-c6ccc7oc(N)nc7c6)c6c(N)ncnc65)ccc4C3)[C@H](OC)C2)C[C@@H](O)[C@H](C)/C=C(\C)[C@@H](O)[C@@H](OC)C(=O)[C@H](C)C[C@H](C)/C=C/C=C/C=C/1C — dose-reducing adverse events (phase 1 dose escalation, refers to: fatigue; advanced solid tumour patients; intravenous, 6 mg weekly, any grade): 0%

A few entries again:
O=C(c1ccc(F)c(F)c1Nc1ccc(I)cc1F)N1CC(O)([C@@H]2CCCCN2)C1 — AE leading treatment withdrawal (patients aged sample A to sample B years; oral, dose not given): 29%
NC(=O)[C@H]1CCN(c2ncnc(N)c2F)C[C@@H]1N1CCC[C@@H](Nc2cc(Cl)cc(C(F)(F)F)c2)C1=O — grade ≥3 leukocytosis (B-cell malignancy patients; oral, 246 mg twice daily, dose): 0%
